Assay results of several laboratories.
Each line is one published result; not all experiments were run side by side. Values joined by “and” are separate records of one study, mostly repeats; a detail may differ. ± marks the error that the study gave.

Structure (SMILES)	test	system	conditions	plasma concentration
c1csc(CNc2cc[nH]n2)c1		mouse, CD-1, male, plasma	oral, 20 mg/kg as HCl salt, 2 h	0.156 µM
C[C@@H](O)[C@H]1C(=O)N2C(C(=O)O)=C(S[C@@H]3CN[C@H](C(=O)N(C)C)C3)[C@H](C)[C@H]12		BALB/c mouse, male, plasma	intraperitoneal, 100 mg/kg, 10 h	1960 ng/mL
CN(C)CC#Cc1ccc2[nH]c3c(c2c1)-c1nc(N)ncc1CCC3		male CD-1 mouse, plasma	intraperitoneal, 30 mg/kg, 1 h	622 ng/mL
CCCCCN1C[C@H](O)[C@@H](O)[C@H](O)[C@@H]1CO	LC-MS/MS	mouse Hexb-/- female, plasma	30 mg/kg/day, arithmetic mean	324 ng/mL
c1ccc(-c2nc(N3CCC(c4ccccn4)C3)c3ccccc3n2)nc1 (stereo not shown)		mouse, Balb/c female, plasma	oral, 12.5 mg/kg, 1 h, mean, added: aminobenzotriazole pretreatment	2850 ng/mL
CSc1cc(Oc2ccnc3[nH]c(=O)cnc23)ccc1NC(=O)Nc1cc(C(C)(C)C)nn1-c1ccccc1		nude mouse, female, plasma	oral, 20 mg/kg, 1 h after last dose	75.4 µM and 94.3 µM and 66.8 µM and 66 µM and 70 µM and 44.1 µM
CC(C)n1ncc2c(C(=O)NCC3(C)CNC3)cc(C3CC3)nc21		mouse BALB/c female, plasma	intraperitoneal, 50 mg/kg, 8 h	279 ng/mL and 315 ng/mL and 337 ng/mL and 255 ng/mL
CC(=O)NCc1cc2c(cc1F)C(=O)N(C1CCC(=O)NC1=O)C2 (stereo not shown)		CD-1 mouse, male	oral, 10 mg/kg parent drug, 2 h	6.2 ± 2.5 ng/mL
CNC(=O)c1cc2c(Oc3ccc(NC(=O)C4(C(=O)Nc5ccc(F)cc5)CC4)cc3)ccnc2cc1OC	LC-MS/MS	CB.17-SCID mouse, Hs746T xenograft, plasma	oral, 100 mg/kg single dose, 4 h	63.4 µM
Cc1cc([C@H]2C[C@H]3[C@@H](C)SC(N)=N[C@@]3(c3ccc(F)cc3F)CO2)on1		male 129/SVE mouse, plasma	subcutaneous, 50 mg/kg, 1 h	9.16 µM
C[C@H]1O[C@@H](O[C@H]2CC[C@@]3(C)[C@@H](CC[C@]4(C)[C@@H]3C=C[C@]35OC[C@@]6(CCC(C)(C)C[C@H]63)[C@@H](O)C[C@]54C)[C@]2(C)CO)[C@H](O)[C@@H](O[C@@H]2O[C@H](CO)[C@@H](O)[C@H](O)[C@H]2O)[C@H]1O	UHPLC-MS/MS	mouse, plasma	oral, 50 mg/kg, 1 h, pooled samples	18 ng/mL and 14.1 ng/mL
O=C1CCC(N2Cc3cc(CO)c(F)cc3C2=O)C(=O)N1 (stereo not shown)		CD-1 mouse, male	oral, 10 mg/kg parent drug, 1 h	30.7 ± 16.3 ng/mL
Cc1cc([C@H]2C[C@H]3[C@@H](CF)SC(N)=N[C@@]3(c3ccc(F)cc3F)CO2)on1		male 129/SVE wild-type mouse, plasma	subcutaneous, 30 mg/kg, 14 h	0.018 µM
Cc1c(C(=O)O)ccc2c3n(nc12)[C@@H]1[C@H](C3)N(CC2CC2)[C@@]2(C(=O)Nc3cc(Cl)ccc32)[C@H]1c1cccc(Cl)c1F		female BALB/c nude mouse, SJSA-1 xenograft, plasma	oral, 1 mg/kg twice daily, 14 h	1.08 µM
CSc1cc(C)nc(SC)c1NC(=O)CN1CCN(CCSc2nc3ccccc3[nH]2)CC1.Cl		mouse Crl:CD1 (ICR) female, plasma	intranasal, 10 µL of 3.24 mg/mL in 0.01 N HCl daily, 120 min, 7 days dosing	0.2 ng/mL and 0.3 ng/mL
CC(C)c1cc(C(=O)NCCN)c2cnn(C(C)C)c2n1		mouse BALB/c female, plasma	intraperitoneal, 50 mg/kg, 0.5 h	1780 ng/mL and 2600 ng/mL and 2330 ng/mL and 2530 ng/mL
C[C@]12CC[C@@H]3c4ccc(O)cc4C[C@@H](CCCCCCCCC[S+]([O-])CCCC(F)(F)C(F)(F)F)[C@H]3[C@@H]1CC[C@@H]2O (stereo partly shown)		mouse NOD/SCID female MCF7 xenograft, plasma	subcutaneous, 200 mg/kg, 7 days	64 ng/mL
Cc1coc([C@H]2C[C@H]3[C@@H](CF)SC(N)=N[C@@]3(c3ccc(F)cc3F)CO2)n1		male 129/SVE mouse, plasma	subcutaneous, 80 mg/kg, 7 h	0.016 µM
O=[N+]([O-])c1ccc(-c2ccc(O)cc2)c2cccnc12		ICR mouse, male	oral, 5 mg/kg, 0.5 h	22 ng/mL
Cc1ncsc1-c1ccc(CNC(=O)[C@@H]2C[C@@H](O)CN2C(=O)[C@@H](NC(=O)CCCCCCCCCC(=O)N2CCN(CC[C@H](NC(=O)C3(N)CCN(c4ncnc5[nH]ccc45)CC3)c3ccc(Cl)cc3)CC2)C(C)(C)C)cc1		mouse, plasma	intraperitoneal, 75 mg/kg once daily for 5 days, 2 h after last dose	~5 µM
CC(C)(C)c1cc(NC(=O)Nc2ccc(Oc3ccnc4[nH]c(=O)cnc34)cc2F)n(-c2ccccc2)n1		nude mouse, female, tumor	oral, 20 mg/kg, 1 h after last dose	6.04 µM and 14.4 µM and 7.63 µM and 8.6 µM and 6.26 µM and 3.48 µM
CCN1CCN(Cc2ccc(NC(=O)c3ccc(C)c(NC(=O)c4cncc(-c5cccs5)c4)c3)cc2C(F)(F)F)CC1	LC-MS/MS	C57BL/6 mouse, plasma	intraperitoneal, 20 mg/kg single dose, 1 h	422 ng/mL and 461 ng/mL and 564 ng/mL

For quick reference, copied from above:
Structure (SMILES)	test	system	conditions	plasma concentration
C[C@H]1O[C@@H](O[C@H]2CC[C@@]3(C)[C@@H](CC[C@]4(C)[C@@H]3C=C[C@]35OC[C@@]6(CCC(C)(C)C[C@H]63)[C@@H](O)C[C@]54C)[C@]2(C)CO)[C@H](O)[C@@H](O[C@@H]2O[C@H](CO)[C@@H](O)[C@H](O)[C@H]2O)[C@H]1O	UHPLC-MS/MS	mouse, plasma	oral, 50 mg/kg, 1 h, pooled samples	18 ng/mL and 14.1 ng/mL
CC(C)c1cc(C(=O)NCCN)c2cnn(C(C)C)c2n1		mouse BALB/c female, plasma	intraperitoneal, 50 mg/kg, 0.5 h	1780 ng/mL and 2600 ng/mL and 2330 ng/mL and 2530 ng/mL
O=[N+]([O-])c1ccc(-c2ccc(O)cc2)c2cccnc12		ICR mouse, male	oral, 5 mg/kg, 0.5 h	22 ng/mL
